Measured values collected from several papers.
A part holds a random share of what one study measured. Positions count from the first letter of the parent shown.

Block 1
Target: CCND1, cyclin fold, Cln2 fusion (human)
Technique: yeast growth competition, sequencing
Sample: yeast
Setting: strong parent motif
Baseline: not given
Reading: higher = stronger binding
Starting sequence: viral docking peptide; KGVKRKLFAEDSS
Under “normalised enrichment score”, `A9P` is recorded as 1.11.
For `S12H`, “normalised enrichment score” read 1.
`A9G` — result for “normalised enrichment score”: 0.842.
`D11F`: “normalised enrichment score” 0.628.

Block 2
Target: Max dimerization protein 1, bHLH-zipper, MAX partner unstated (MXD1, Homo sapiens, UniProt Q05195, residues 56-136)
Technique: protein-binding microarray
Form: double-stranded DNA, one strand shown
Sample: in vitro
Concentration: not given
Setting: k-mer, scored over probes, only values ≥0.25
Reading: higher = stronger binding
Target sequence (chain): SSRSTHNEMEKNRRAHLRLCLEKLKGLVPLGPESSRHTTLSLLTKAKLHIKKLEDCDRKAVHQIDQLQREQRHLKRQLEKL
`AAACGTGG` has an E-score of 0.42.
`GCATGTTA` gave an E-score of 0.351.
The E-score of `ACACGTGA` is reported as 0.479.
For `CGTGCACG`, the E-score was 0.418.
`CGCGCACG` has an E-score of 0.349.
`CAACCATG` gave an E-score of 0.313.
With `GGGAATGA` the E-score was 0.252.
For `GTGGTATA`, the E-score was 0.265.

Block 3
Target: PABPC1L2, full length, GST fusion (mouse, UniProt A0ABA7IW68)
Technique: RNAcompete
Form: RNA
Sample: in vitro
Concentration: 20 nM
Setting: 7-mer, probes averaged, single round
Baseline: mean of 7-mers
Reading: higher = stronger binding
Construct (chain): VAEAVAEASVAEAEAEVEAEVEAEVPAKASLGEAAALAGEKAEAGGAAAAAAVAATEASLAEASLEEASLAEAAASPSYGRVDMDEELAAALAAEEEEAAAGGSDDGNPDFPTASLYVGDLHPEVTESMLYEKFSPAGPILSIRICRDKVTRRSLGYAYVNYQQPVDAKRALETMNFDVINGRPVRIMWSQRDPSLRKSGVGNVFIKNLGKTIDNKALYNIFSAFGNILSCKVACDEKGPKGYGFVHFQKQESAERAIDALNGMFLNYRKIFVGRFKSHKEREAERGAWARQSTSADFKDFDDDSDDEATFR
With `UGUGGCG` the 7-mer Z-score was 0.0352.
For `CUUUCGA`, the 7-mer Z-score was -0.286.
For `GCUAUUG`, the 7-mer Z-score was -0.293.
The 7-mer Z-score of `GUAGGCU` is reported as 0.0805.
For `UAGACCG`, the 7-mer Z-score was -0.195.
`AUGCUUU` gave a 7-mer Z-score of -0.141.
`UAAUGAA` gave a 7-mer Z-score of 0.137.
For `CACAGGC`, the 7-mer Z-score was 0.108.

Block 4
Target: inorganic phosphate, free oxyanion
Technique: microfluidic competitive inhibition
Sample: in vitro, cell-free expressed
Concentration: not given
Setting: derived from inhibition constants, unchanged parent 615000 nM
Reading: lower = stronger binding
Starting sequence: PafA, mature enzyme, eGFP fusion (Elizabethkingia meningoseptica, UniProt Q9KJX5); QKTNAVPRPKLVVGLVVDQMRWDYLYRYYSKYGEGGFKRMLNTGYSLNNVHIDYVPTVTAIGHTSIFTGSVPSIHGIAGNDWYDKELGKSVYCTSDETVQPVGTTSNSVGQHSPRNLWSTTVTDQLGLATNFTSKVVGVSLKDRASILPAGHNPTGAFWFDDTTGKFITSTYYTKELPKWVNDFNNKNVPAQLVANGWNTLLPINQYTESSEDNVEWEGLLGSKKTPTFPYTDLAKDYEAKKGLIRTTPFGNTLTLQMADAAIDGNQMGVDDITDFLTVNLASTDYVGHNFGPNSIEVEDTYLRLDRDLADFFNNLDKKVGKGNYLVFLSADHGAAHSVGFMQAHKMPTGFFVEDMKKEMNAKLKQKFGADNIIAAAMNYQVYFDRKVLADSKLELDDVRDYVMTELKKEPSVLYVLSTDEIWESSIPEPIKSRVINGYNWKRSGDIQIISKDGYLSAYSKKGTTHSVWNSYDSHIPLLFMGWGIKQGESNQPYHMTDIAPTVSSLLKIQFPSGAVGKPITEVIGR
`E216V`: “phosphate dissociation constant” 638 µM.
Under “phosphate dissociation constant”, `K10V` is recorded as 537 µM.
Under “phosphate dissociation constant”, `T253V` is recorded as 733 µM.
For `F352V`, “phosphate dissociation constant” read 679 µM.

For quick reference, copied from above (block 3):
With `UGUGGCG` the 7-mer Z-score was 0.0352.
For `CUUUCGA`, the 7-mer Z-score was -0.286.
For `GCUAUUG`, the 7-mer Z-score was -0.293.
